Results of several laboratories.
Every numbered part comes from another study and shows a few of its results, in no order. Several values in a cell are separate wells, animals, samples, runs or records.
UniProt P22607, sequence (whole entry, looked up): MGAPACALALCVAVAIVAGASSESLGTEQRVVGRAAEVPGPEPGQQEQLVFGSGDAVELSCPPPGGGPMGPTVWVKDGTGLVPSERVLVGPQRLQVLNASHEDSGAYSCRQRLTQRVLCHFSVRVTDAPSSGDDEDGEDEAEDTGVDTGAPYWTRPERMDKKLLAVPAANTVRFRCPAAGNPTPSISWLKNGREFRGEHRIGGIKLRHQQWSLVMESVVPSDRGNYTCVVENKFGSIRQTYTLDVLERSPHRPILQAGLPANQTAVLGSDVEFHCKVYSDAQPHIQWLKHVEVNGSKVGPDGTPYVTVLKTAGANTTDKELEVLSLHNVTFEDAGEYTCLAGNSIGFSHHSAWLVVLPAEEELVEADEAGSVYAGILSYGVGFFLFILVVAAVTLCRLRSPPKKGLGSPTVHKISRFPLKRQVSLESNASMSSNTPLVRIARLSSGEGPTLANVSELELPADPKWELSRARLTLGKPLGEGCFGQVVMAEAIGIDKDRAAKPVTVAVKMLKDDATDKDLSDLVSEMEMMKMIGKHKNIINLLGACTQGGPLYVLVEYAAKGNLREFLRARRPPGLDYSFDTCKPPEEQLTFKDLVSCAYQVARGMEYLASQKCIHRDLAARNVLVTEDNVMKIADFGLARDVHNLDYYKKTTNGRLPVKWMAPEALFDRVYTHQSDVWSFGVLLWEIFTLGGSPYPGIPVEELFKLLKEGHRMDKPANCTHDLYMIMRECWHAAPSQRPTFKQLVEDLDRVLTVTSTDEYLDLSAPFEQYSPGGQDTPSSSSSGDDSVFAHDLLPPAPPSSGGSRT
UniProt Q9HC98, sequence (whole entry, looked up): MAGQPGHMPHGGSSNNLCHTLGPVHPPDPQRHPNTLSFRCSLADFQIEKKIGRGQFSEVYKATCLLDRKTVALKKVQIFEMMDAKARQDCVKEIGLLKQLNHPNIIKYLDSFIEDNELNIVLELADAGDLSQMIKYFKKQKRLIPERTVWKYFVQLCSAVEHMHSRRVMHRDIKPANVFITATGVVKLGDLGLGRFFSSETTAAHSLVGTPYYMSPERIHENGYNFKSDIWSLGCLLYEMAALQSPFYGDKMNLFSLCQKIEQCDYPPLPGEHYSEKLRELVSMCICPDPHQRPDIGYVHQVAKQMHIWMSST
UniProt O15146, sequence (whole entry, looked up): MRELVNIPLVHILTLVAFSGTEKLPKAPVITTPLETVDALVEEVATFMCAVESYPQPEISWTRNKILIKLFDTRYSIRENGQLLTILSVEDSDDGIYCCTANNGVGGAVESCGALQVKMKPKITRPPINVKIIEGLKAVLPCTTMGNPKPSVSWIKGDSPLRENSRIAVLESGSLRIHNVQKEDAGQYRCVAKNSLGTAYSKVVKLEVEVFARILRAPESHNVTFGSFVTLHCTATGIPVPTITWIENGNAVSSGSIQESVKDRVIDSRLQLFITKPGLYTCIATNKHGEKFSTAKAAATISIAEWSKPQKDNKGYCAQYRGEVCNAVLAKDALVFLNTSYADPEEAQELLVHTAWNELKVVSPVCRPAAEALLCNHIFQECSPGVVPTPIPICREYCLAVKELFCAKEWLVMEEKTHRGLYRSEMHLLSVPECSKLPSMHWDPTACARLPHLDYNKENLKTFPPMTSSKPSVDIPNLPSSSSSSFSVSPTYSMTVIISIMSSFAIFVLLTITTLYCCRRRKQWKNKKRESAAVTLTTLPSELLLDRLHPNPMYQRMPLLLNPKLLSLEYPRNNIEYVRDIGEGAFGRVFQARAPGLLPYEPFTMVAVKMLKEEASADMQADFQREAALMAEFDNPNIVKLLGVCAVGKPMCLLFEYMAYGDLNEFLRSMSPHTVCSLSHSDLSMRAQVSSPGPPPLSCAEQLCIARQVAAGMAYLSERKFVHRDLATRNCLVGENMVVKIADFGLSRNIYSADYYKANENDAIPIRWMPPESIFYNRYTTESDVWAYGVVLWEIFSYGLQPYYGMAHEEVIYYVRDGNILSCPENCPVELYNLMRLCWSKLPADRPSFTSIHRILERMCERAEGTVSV
UniProt Q8TBX8, sequence (whole entry, looked up): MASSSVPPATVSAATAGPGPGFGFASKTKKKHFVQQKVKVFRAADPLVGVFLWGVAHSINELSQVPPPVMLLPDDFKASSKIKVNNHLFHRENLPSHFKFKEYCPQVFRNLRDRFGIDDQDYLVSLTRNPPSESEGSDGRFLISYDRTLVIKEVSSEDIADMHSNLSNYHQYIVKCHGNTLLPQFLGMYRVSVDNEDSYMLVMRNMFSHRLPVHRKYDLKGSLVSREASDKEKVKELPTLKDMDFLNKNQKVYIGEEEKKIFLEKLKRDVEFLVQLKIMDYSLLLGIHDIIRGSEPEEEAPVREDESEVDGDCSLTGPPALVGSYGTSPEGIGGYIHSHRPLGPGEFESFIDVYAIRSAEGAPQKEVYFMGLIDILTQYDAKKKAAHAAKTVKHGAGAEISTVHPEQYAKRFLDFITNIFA
UniProt P52333, sequence (whole entry, looked up): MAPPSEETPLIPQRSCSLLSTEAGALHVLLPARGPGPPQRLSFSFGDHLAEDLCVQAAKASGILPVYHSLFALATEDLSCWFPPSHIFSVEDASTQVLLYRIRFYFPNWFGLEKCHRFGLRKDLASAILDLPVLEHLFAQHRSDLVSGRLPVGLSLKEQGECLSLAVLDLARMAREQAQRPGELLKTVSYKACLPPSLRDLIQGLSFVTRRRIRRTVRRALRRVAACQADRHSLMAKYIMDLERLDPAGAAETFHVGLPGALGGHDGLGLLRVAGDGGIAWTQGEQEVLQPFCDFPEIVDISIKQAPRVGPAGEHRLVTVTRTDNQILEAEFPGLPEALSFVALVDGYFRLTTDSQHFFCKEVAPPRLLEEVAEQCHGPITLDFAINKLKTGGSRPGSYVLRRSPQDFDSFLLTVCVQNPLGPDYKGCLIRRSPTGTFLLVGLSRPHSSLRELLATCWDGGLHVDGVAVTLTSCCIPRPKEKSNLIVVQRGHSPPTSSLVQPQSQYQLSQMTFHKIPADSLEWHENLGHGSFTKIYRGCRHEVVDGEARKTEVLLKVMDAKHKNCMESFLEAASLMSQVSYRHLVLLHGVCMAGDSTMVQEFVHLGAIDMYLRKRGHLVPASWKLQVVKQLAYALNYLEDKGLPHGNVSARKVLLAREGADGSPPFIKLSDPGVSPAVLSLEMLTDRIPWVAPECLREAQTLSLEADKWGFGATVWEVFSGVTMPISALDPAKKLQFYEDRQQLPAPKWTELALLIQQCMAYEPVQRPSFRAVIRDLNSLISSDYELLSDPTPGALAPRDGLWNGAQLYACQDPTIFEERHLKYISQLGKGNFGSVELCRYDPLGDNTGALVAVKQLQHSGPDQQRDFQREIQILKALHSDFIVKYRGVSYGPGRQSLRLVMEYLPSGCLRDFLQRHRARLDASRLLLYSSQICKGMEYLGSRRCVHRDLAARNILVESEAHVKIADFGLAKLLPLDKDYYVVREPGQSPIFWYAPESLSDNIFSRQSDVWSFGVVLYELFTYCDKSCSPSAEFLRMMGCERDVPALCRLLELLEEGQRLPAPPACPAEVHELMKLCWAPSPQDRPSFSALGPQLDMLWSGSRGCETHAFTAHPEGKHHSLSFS
UniProt Q8WTQ7, sequence (whole entry, looked up): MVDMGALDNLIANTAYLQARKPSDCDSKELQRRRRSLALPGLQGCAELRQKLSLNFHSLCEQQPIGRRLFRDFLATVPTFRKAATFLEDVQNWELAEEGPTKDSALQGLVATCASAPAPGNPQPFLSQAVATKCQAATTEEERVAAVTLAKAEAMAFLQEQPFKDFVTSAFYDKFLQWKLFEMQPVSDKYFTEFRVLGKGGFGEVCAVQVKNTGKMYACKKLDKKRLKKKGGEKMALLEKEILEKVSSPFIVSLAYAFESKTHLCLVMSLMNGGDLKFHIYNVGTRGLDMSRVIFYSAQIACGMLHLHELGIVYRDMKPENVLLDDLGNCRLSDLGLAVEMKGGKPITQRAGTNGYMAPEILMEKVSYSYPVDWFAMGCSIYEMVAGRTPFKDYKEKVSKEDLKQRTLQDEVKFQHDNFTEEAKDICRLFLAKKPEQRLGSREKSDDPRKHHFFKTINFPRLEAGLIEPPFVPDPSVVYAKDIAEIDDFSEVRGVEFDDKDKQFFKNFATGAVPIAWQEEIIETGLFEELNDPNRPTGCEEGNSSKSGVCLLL
UniProt P27361, sequence (whole entry, looked up): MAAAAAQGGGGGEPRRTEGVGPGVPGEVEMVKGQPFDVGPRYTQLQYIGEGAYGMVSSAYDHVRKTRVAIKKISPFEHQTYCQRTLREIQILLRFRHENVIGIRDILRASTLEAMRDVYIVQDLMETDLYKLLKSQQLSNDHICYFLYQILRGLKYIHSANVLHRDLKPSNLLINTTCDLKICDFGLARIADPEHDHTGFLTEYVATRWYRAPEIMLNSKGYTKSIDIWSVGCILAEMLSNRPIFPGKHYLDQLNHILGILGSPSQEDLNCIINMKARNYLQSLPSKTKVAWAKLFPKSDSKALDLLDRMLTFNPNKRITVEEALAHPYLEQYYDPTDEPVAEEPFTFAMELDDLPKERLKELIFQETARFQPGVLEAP
UniProt P37023, sequence (whole entry, looked up): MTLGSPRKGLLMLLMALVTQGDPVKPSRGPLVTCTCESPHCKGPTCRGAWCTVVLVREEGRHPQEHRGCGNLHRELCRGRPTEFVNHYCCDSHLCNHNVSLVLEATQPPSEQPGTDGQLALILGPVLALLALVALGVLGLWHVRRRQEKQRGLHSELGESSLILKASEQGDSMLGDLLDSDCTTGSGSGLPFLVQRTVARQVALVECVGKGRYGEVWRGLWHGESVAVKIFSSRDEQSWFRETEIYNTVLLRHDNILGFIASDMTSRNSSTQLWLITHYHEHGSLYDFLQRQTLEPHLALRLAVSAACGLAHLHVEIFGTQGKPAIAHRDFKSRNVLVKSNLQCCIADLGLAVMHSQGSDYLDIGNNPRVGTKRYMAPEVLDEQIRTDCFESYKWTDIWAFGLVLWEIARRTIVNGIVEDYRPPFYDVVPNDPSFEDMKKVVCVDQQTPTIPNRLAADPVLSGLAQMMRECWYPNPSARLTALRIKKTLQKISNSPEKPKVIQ

Study 1 — species: mouse; medium: microsomes or S9; concentration: 2 µM; time: 0.5 h
Compound | remaining compound
O=C(Cn1c(=O)oc2ccccc21)N[C@@H]1CCN(c2cnccn2)C[C@H]1O | 26.6%
CN(c1ccc(Cl)nn1)c1ccc(N)cc1Cl | 34.5%
Cc1ccc(-n2ncc3c(C(C)C)nn(CC(=O)NC(C)(C)C)c(=O)c32)cc1C | 0.0461%
CC(C)COc1cc(=O)n2c(c1C(=O)NCCCn1cccn1)CCCCC2 | 66.2%

Study 2 — SMILES: Fc1ccc(-c2nc3n(c2-c2ccncc2)CCS3)cc1; observed: enzyme activity; action: inhibitor; concentration: 0.5 µM; reference: control
target | remaining activity
CSNK1G2 (Homo sapiens, UniProt P78368) | 76.4%
FGFR3 (Homo sapiens, UniProt P22607) | 91.8%
CSNK1G3 (Homo sapiens, UniProt Q9Y6M4) | 97.9%
JAK3 (Homo sapiens, UniProt P52333) | 94.3%
LCK (Homo sapiens, UniProt P06239) | 96.2%
TEK (Homo sapiens, UniProt Q02763) | 95.6%
MST1R (Homo sapiens, UniProt Q04912) | 97.3%
GSK3B (Homo sapiens, UniProt P49841) | 105%
ULK2 (Homo sapiens, UniProt Q8IYT8) | 106%
MAP3K5 (Homo sapiens, UniProt Q99683) | 105%
NEK6 (Homo sapiens, UniProt Q9HC98) | 98.7%
GRK7 (Homo sapiens, UniProt Q8WTQ7) | 104%
MAPK3 (Homo sapiens, UniProt P27361) | 103%
FGFR1 (Homo sapiens, UniProt P11362) | 93.4%

Study 3 — technique: competition with immobilised ligand; concentration: 1 µM
SMILES: COc1cc(-c2cn(C3CCc4ccccc4N(CC(F)(F)F)C3=O)nn2)ccc1-n1ccc(C)n1 (centres unmarked)
target | observed | remaining binding [%]
STK32B (Homo sapiens, UniProt Q9NY57) | cell-free assay | 85
CDKL5 (Homo sapiens, UniProt O76039) | binding | 87
ACVRL1 (Homo sapiens, UniProt P37023) | binding | 100
ALK (Homo sapiens, UniProt Q9UM73, L1196M) | cell-free assay | 91
PIP4K2C (Homo sapiens, UniProt Q8TBX8) | cell-free assay | 100
MUSK (Homo sapiens, UniProt O15146) | cell-free assay | 99

Study 4 — cell line: mouse MPNST tumor cells; technique: high-content nuclear imaging; refers to: cell number; concentration: 10 µM; time: 12 h; notes: mean of 2 replicates; reference: plate mean; reading: higher = more cells
SMILES | nuclei count
c1ccc2c(-c3cnn4cc(-c5ccc(N6CCNCC6)cc5)cnc34)ccnc2c1 | -6.39 z-score
O=C(NN=Cc1ccccc1O)c1ccccc1O | -3.78 z-score
CCCCN1CCCCC1C(=O)Nc1c(C)cccc1C (centres unmarked) | 0.265 z-score
CCC(CC)O[C@@H]1C=C(C(=O)O)C[C@H](N)[C@H]1NC(C)=O | 0.627 z-score
C[C@]12CC[C@@H]3c4ccc(O)cc4C[C@@H](CCCCCCCCC[S+]([O-])CCCC(F)(F)C(F)(F)F)[C@H]3[C@@H]1CC[C@@H]2O (some centres unmarked) | 4.94 z-score and 2.75 z-score

Excerpt of the above (study 2):
target | remaining activity
ULK2 (Homo sapiens, UniProt Q8IYT8) | 106%
NEK6 (Homo sapiens, UniProt Q9HC98) | 98.7%
